Experimental data of several laboratories.
Compare with care: the assays were run in different laboratories. ± gives the spread as reported.
KLRK1 with ULBP6: NKG2-D type II integral membrane protein, with ULBP6 (KLRK1, Homo sapiens, UniProt P26718)
KCNQ3/KCNQ2: Voltage-gated potassium channel, KQT; KCNQ2(Kv7.2)/KCNQ3(Kv7.3) (KCNQ3/KCNQ2, Homo sapiens, UniProt O43525+O43526)

Structure (SMILES) = CN(C)C(=O)[C@@H](NC(=O)c1cc(-c2ccnn2C)ccc1-c1ccc(C(F)(F)F)cc1)c1cccc(C(F)(F)F)c1; target = KLRK1 with ULBP6; assay = ligand binding, inhibitor, TR-FRET; test system = HEK293 expressing NKG2D and DAP10; conditions = with: ULBP6-AF647; how to read = baseline: positive control; measurement = maximum inhibition; result = 101%
Structure (SMILES) = CCN(Cc1ccccc1)C(=O)CCc1nc(CN2CCN(C(=O)Cc3ccc(OC)c(OC)c3)CC2)no1; target = KCNQ3/KCNQ2; assay = potassium current, whole-cell patch clamp; test system = CHO, stable; conditions = 1 µM; measurement = activation V1/2; result = -29.9 ± 1.82 mV
Structure (SMILES) = C[C@]12CC[C@H](O)CC1CCC1C2[C@H](O)C(=O)[C@]2(C)[C@@H](c3ccc(=O)oc3)CC[C@]12O (stereo partly drawn); target = Sulfotransferase 2A1 (SULT2A1, Homo sapiens, UniProt Q06520); assay = sulfation, substrate; test system = human liver cytosol; conditions = concentration not given, anti-SULT2A1 immunoprecipitation; how to read = baseline: control cytosol; measurement = remaining activity; result = 54%
Structure (SMILES) = O=C(N[C@H]1CCOC1=O)c1cccc(-c2cn(-c3ccc4[nH]ccc4c3)nn2)c1; target = Transcriptional activator protein LasR (lasR, Pseudomonas aeruginosa, UniProt P25084); assay = reporter gene, agonist; test system = Escherichia coli, DH5α pJN105L/pSC11; conditions = 100 µM; how to read = baseline: OdDHL at same concentration; measurement = activation; result = 1%
Structure (SMILES) = Cc1cc(C2=CCN(CC3OCCO3)CC2)cc([N+](=O)[O-])c1N; target = 5-hydroxytryptamine receptor 2B (HTR2B, Homo sapiens, UniProt P41595); assay = β-arrestin recruitment, agonist; measurement = Emax; result = 105%
Structure (SMILES) = CC(C)C[C@@H](N)C(=O)NCC(=O)N[C@H](C)C(=O)N[C@H](CO)C(=O)N[C@H](Cc1c[nH]c2ccccc12)C(=O)N[C@H](Cc1c[nH]cn1)C(=O)N[C@H](CCCNC(=N)N)C(=O)N1CCC[C@@H]1C(=O)N[C@H](CC(=O)O)C(=O)N[C@H](CCCCN)C(=O)N[C@H](CSSC[C@@H](NC(=O)[C@@H](CCCCN)NC(=O)[C@@H](CC(=O)O)NC(=O)[C@H]1CCCN1C(=O)[C@@H](CCCNC(=N)N)NC(=O)[C@@H](Cc1c[nH]cn1)NC(=O)[C@@H](Cc1c[nH]c2ccccc12)NC(=O)[C@@H](CO)NC(=O)[C@@H](C)NC(=O)CNC(=O)[C@H](N)CC(C)C)C(=O)N[C@H](C)C(=O)N[C@H](CC(C)C)C(=O)NCC(=O)N[C@H](Cc1ccc(O)cc1)C(=O)N[C@H](CCC(N)=O)C(=O)N[C@H](CCCCN)C(=O)N[C@H](CCCNC(=N)N)C(=O)N1CCC[C@@H]1C(=O)N[C@H](CC(C)C)C(=O)N1CCC[C@@H]1C(N)=O)C(=O)N[C@H](C)C(=O)N[C@H](CC(C)C)C(=O)NCC(=O)N[C@H](Cc1ccc(O)cc1)C(=O)N[C@H](CCC(N)=O)C(=O)N[C@H](CCCCN)C(=O)N[C@H](CCCNC(=N)N)C(=O)N1CCC[C@@H]1C(=O)N[C@H](CC(C)C)C(=O)N1CCC[C@@H]1C(N)=O; target = C-X-C chemokine receptor type 4 (CXCR4, Homo sapiens, UniProt P61073, D171A); test system = 293 cells; conditions = 300 nM, with: 12G5 antibody 5 µg/mL; how to read = baseline: wild type; measurement = binding decrease; result = 60%
Structure (SMILES) = CN(C)C(=O)C(NC(=O)c1ccccc1-c1ccc(C(F)(F)F)cc1)c1cccc(C(F)(F)F)c1 (stereo not drawn); target = NKG2-D type II integral membrane protein (KLRK1, Homo sapiens, UniProt P26718); assay = surface plasmon resonance; measurement = dissociation rate constant; result = 0.000567 s⁻¹
Structure (SMILES) = CC[C@H](C)[C@H](NC(=O)[C@H](Cc1c[nH]cn1)NC(=O)[C@H](CCCCNC(=O)[C@@H](NC(=O)[C@H](CCCCN)NC(=O)[C@H](Cc1ccccc1)NC(=O)[C@H](CCCCNC(=O)[C@H](CC(C)C)NC(=O)[C@@H]1CCCN1C(=O)[C@H](CCCCN)NC(=O)CCS[C@@H]1O[C@H](CO)[C@H](O)[C@H](O)[C@H]1O)NC(=O)[C@H](CC(C)C)NC(=O)[C@@H]1CCCN1C(=O)[C@H](CCCCN)NC(=O)CCS[C@@H]1O[C@H](CO)[C@H](O)[C@H](O)[C@H]1O)[C@@H](C)CC)NC(=O)[C@@H](NC(=O)[C@H](CCCCN)NC(=O)[C@H](Cc1ccccc1)NC(=O)[C@H](CCCCNC(=O)[C@H](CC(C)C)NC(=O)[C@@H]1CCCN1C(=O)[C@H](CCCCN)NC(=O)CCS[C@@H]1O[C@H](CO)[C@H](O)[C@H](O)[C@H]1O)NC(=O)[C@H](CC(C)C)NC(=O)[C@@H]1CCCN1C(=O)[C@H](CCCCN)NC(=O)CCS[C@@H]1O[C@H](CO)[C@H](O)[C@H](O)[C@H]1O)[C@@H](C)CC)C(N)=O; target = PA-I galactophilic lectin (lecA, Pseudomonas aeruginosa, UniProt Q05097); assay = isothermal titration calorimetry; conditions = pH 7.5, 25 °C, with: 25 mM CaCl2; measurement = ΔG; result = -8.8 ± 0.2 kcal/mol
Structure (SMILES) = N[C@@H](Cc1ccc(C(=O)NCCc2cccc3ccccc23)cc1)C(=O)N1Cc2ccccc2C[C@H]1C(=O)N[C@@H](Cc1ccccc1)C(=O)N[C@@H](Cc1ccccc1)C(=O)O; target = Delta-type opioid receptor (Oprd1, Mus musculus, UniProt P32300); assay = smooth muscle contraction, agonist; test system = mouse vas deferens; how to read = baseline: DPDPE; measurement = relative potency; result = 2 to 4 fold
Structure (SMILES) = C[C@@]1(O)CC[C@H]2[C@H](CC[C@@H]3[C@@H]2CC[C@]2(C)[C@@H](C(=O)Cn4cccn4)CC[C@@H]32)C1; target = Membrane progestin receptor delta (Paqr6, Mus musculus, UniProt Q6TCG5); assay = pPKA/PKA immunoblot; test system = MDA-MB-231 expressing Paqr6-GFP; conditions = 100 nM, 20 min; how to read = baseline: control; measurement = PKA activation; result = 97.9 ± 2.02%
Structure (SMILES) = NC(=S)N/N=C/c1cccc(OCc2ccccc2)c1; target = Amine oxidase [flavin-containing] A (MAOA, Homo sapiens, UniProt P21397); assay = enzyme activity, inhibitor, absorbance; conditions = 10 µM; measurement = remaining activity; result = 10%
Structure (SMILES) = COP(=O)(O)Oc1ccc([N+](=O)[O-])cc1; target = Alkaline phosphatase PafA (pafA, Elizabethkingia meningoseptica, UniProt Q9KJX5, K162A); test system = Chryseobacterium meningosepticum; conditions = pH 8.0; how to read = baseline: wild type over mutant kcat/KM; measurement = relative catalytic efficiency; result = 1.3
Structure (SMILES) = CN1C(=O)[C@H](Cc2ccccc2)N(C)C(=O)[C@@H]2[C@H]1CCN2Cc1cc(Cl)cc(Cl)c1; target = KLRK1 with ULBP6; assay = ligand binding, inhibitor, TR-FRET; test system = HEK293 expressing NKG2D and DAP10; conditions = with: ULBP6-AF647; how to read = baseline: positive control; measurement = maximum inhibition; result = 58%
Structure (SMILES) = CCCCC/C=C\C/C=C\C/C=C\C/C=C\CCCC(=O)NCCc1ccc(O)c(O)c1; target = KCNQ3/KCNQ2; assay = two-electrode voltage clamp; test system = Xenopus oocytes; conditions = 10 and 100 µM; measurement = maximal conductance; result = no effect
Structure (SMILES) = CN1/C(=C/C=C/C=C/C2=[N+](CCCCCC(=O)NCCCCCCCCN3[C@@H]4[C@H](C(=O)O)[C@@H](O)[C@H](O)[C@@H](O)[C@@H]43)c3ccccc3C2(C)C)C(C)(C)c2ccccc21 (stereo partly drawn); target = Beta-glucuronidase (GUSB, Homo sapiens, UniProt P08236); assay = inhibitor, competitive ABPP; test system = human platelet lysate; how to read = lowest fully inhibiting; measurement = concentration for complete inhibition; result = 390 nM
Structure (SMILES) = C=CC(=O)Nc1cccc(-c2cnc3[nH]cc(C(=O)NC(C)(C)C)c3n2)c1; target = Tyrosine-protein kinase JAK2 (JAK2, Homo sapiens, UniProt O60674); assay = enzyme activity, inhibitor; how to read = baseline: JAK3 over JAK2; measurement = selectivity ratio; result = 378 fold
Structure (SMILES) = CN(C)C(=O)[C@@H](NC(=O)c1cnccc1-c1ccc(C(F)(F)F)cc1)c1cccc(C(F)(F)F)c1; target = KLRK1 with ULBP6; assay = ligand binding, inhibitor, TR-FRET; test system = HEK293 expressing NKG2D and DAP10; conditions = with: ULBP6-AF647; how to read = baseline: positive control; measurement = maximum inhibition; result = 102%
Structure (SMILES) = N[C@@H](CCC(=O)N[C@@H](CS[Se]Cc1ccc(C(=O)Nc2cc(C(F)(F)F)c(Br)c(C(F)(F)F)c2)cc1)C(=O)NCC(=O)O)C(=O)O; target = Tyrosine-protein phosphatase non-receptor type 5 (PTPN5, Homo sapiens, UniProt P54829); assay = enzyme activity; conditions = with: pNPP, GSH 1 mM; how to read = baseline: IC50 PTPN5 over mPTPA; measurement = selectivity ratio; result = 12

Excerpt of the above:
Structure (SMILES) = CN(C)C(=O)[C@@H](NC(=O)c1cnccc1-c1ccc(C(F)(F)F)cc1)c1cccc(C(F)(F)F)c1; target = KLRK1 with ULBP6; assay = ligand binding, inhibitor, TR-FRET; test system = HEK293 expressing NKG2D and DAP10; conditions = with: ULBP6-AF647; how to read = baseline: positive control; measurement = maximum inhibition; result = 102%
